Measurements collected from several papers.
Each numbered part is a random draw from the data of one study; scales do not carry over between parts. Values joined by “and” are separate records of one study, mostly repeats; a detail may differ.
UniProt P42338, sequence (whole entry, looked up): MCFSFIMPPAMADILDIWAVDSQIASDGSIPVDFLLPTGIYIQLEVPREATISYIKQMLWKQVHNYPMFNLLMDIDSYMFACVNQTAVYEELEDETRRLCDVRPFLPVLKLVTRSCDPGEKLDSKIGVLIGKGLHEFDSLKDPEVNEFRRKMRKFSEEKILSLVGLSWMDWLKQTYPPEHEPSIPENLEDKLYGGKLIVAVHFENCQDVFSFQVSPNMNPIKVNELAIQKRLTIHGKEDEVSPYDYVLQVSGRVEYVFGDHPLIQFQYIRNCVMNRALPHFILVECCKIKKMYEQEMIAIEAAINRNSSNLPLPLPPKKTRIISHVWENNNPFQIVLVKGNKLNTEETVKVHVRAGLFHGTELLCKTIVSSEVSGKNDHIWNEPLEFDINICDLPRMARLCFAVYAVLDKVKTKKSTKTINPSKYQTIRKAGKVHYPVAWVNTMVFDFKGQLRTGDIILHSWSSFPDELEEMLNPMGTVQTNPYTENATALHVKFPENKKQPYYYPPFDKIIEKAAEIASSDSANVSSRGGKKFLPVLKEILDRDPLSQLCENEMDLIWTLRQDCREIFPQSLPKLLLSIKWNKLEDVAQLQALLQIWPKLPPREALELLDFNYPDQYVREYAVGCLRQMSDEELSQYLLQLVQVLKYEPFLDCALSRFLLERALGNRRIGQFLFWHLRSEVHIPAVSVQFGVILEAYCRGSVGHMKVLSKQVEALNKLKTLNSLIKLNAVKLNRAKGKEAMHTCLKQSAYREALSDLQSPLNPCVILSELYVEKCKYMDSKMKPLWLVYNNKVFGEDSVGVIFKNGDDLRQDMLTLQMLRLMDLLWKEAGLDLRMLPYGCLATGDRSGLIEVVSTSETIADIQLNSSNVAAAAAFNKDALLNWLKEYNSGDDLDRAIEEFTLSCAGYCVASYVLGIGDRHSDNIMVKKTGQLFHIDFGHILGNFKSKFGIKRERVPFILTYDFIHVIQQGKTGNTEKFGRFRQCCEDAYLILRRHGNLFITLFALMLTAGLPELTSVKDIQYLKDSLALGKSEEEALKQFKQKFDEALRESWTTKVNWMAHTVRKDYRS
UniProt Q12852, sequence (whole entry, looked up): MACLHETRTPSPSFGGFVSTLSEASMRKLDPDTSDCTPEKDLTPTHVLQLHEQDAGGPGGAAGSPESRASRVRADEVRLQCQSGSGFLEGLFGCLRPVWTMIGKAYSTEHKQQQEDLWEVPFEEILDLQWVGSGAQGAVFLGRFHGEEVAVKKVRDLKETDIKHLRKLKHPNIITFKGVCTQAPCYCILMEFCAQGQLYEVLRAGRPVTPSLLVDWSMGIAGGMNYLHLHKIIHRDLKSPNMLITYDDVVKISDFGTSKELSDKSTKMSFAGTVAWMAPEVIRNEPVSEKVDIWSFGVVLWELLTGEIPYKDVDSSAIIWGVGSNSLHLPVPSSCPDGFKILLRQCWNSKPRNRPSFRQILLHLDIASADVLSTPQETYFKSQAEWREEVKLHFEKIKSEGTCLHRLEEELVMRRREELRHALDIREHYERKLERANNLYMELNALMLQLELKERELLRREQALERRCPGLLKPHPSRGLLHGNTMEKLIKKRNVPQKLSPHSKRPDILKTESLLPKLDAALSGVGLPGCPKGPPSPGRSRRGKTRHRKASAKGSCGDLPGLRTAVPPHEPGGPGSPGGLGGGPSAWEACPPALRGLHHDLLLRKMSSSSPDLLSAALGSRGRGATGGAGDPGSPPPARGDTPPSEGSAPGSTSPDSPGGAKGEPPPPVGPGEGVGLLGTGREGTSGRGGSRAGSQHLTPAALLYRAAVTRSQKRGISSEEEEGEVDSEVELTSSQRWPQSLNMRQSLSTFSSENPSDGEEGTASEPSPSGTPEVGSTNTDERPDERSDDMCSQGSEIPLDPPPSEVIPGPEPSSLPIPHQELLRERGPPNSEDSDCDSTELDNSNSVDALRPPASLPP
UniProt P51812, sequence (whole entry, looked up): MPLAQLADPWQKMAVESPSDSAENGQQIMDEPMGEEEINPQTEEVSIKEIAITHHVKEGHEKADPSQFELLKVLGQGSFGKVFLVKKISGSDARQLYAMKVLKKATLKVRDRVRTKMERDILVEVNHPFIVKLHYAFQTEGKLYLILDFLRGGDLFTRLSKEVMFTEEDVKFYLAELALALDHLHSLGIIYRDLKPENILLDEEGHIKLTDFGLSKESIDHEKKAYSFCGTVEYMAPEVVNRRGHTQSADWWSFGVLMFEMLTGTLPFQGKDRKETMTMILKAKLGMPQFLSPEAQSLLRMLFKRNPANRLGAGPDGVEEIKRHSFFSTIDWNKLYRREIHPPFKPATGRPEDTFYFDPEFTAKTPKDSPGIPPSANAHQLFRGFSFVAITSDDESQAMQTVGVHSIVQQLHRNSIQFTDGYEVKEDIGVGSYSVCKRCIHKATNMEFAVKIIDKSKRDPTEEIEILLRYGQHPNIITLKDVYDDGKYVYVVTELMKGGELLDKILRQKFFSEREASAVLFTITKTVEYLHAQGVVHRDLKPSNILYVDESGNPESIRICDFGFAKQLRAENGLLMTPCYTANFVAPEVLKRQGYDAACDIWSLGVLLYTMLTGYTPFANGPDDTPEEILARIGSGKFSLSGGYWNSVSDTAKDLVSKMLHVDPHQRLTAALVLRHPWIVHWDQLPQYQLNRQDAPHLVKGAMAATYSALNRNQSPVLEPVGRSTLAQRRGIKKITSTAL
UniProt Q9UIK4, sequence (whole entry, looked up): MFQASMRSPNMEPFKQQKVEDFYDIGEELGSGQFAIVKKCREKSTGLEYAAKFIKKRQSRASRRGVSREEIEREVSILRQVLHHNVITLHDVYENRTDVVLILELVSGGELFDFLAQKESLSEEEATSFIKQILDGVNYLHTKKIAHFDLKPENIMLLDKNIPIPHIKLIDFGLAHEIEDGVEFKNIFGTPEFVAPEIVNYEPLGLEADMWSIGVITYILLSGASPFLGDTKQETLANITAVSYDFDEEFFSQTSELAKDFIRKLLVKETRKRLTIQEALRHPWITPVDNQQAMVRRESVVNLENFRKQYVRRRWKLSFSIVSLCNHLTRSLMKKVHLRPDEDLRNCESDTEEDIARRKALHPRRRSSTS
UniProt P48729, sequence (whole entry, looked up): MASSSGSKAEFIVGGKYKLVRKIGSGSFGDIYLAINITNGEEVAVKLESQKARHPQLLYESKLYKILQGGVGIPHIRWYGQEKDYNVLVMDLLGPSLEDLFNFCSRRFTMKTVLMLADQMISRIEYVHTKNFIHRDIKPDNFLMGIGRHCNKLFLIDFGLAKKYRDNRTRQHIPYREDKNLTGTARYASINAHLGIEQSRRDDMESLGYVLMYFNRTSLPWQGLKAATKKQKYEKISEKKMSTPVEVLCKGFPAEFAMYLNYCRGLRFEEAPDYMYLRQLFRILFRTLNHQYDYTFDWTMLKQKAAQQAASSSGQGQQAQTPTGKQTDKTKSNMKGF

Study 1
Target: Prothrombin, mature alpha-thrombin (F2, Homo sapiens, UniProt P00734)
Method: aptamer microarray, sandwich
Molecule type: DNA with 2'F-ANA
Medium: in vitro
Concentration: 200 nM
Notes: whole 15-mer aptamer, many near background
Added: Cy3 exosite-II aptamer, 400 nM
Direction: higher = stronger binding
Strand: GGTTGGTGTGGTTGG
`2'F-ANA at 2 6 7 10 12 14` — result for “mean fluorescence intensity”: 85.5 a.u.
`2'F-ANA at 2 4 6 7 8 9 12 13 15`: “mean fluorescence intensity” 334 a.u.
Under “mean fluorescence intensity”, `2'F-ANA at 2 3 4 6 10 11 13 15` is recorded as 168 a.u.
Under “mean fluorescence intensity”, `2'F-ANA at 1 5 6 8 9 11 12 15` is recorded as 89.1 a.u.
`2'F-ANA at 2 4 7 8 9 11 12 14` — result for “mean fluorescence intensity”: 118 a.u.
Under “mean fluorescence intensity”, `2'F-ANA at 1 2 3 4 6 7 10 11 13 14 15` is recorded as 48.6 a.u.
`2'F-ANA at 1 2 3 6 7 8 9 14`: “mean fluorescence intensity” 75.9 a.u.
Under “mean fluorescence intensity”, `2'F-ANA at 2 3 6 8 10 13 14 15` is recorded as 235 a.u.

Study 2
Target: Ras GTPase-activating protein-binding protein 1, full length (G3BP1, Homo sapiens, UniProt Q13283)
UniProt Q13283, sequence (whole entry, looked up): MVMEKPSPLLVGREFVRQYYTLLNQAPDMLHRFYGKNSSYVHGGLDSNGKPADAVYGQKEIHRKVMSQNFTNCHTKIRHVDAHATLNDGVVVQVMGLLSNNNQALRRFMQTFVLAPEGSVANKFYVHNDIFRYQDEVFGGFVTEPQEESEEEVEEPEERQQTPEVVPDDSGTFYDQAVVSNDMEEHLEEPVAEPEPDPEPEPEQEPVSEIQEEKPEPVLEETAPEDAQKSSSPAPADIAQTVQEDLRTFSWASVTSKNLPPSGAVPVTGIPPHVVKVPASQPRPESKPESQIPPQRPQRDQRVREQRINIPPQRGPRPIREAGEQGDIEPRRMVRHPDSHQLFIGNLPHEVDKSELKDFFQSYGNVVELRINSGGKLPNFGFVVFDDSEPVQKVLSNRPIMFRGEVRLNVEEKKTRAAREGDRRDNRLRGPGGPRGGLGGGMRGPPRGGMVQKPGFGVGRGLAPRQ
Method: RNA Bind-n-Seq
Molecule type: RNA
Medium: in vitro
Concentration: 200 nM
Notes: whole 134-nt RNA, ends assumed
Added: 150 mM KCl
Relative to: input library
Direction: higher = stronger binding
Shared flanks, not repeated: GGGAGUUCUACAGUCCGACGAUC … UGGAAUUCUCGGGUGUCAAGG
`AAGUCCUGUGCUACACAUCGUAUGUACCGAAUCGGGUUUGGGUUUUUUUGGGAGGGAAAGUAUUAUGUUACGCCGUUCGGAUCUGCACUU` has a log2 enrichment of 0.275.
For `CAAGUCCUGUGCUACACAUCGUAUGUACCGAAUCGGGGAAGGGGAAGGGGAAGGGGAAAGUAUUAUGUUACGCCGUUCGGAUCUGCACUU`, the log2 enrichment was 1.23.
For `CUGUGCUACACAUCGUAUGUACCGAAUCGGGGAAAGGGGAAAAAAAGGGGAAAAAAAGGGGAAAGUAUUAUGUUACGCCGUUCGGAUCUG`, the log2 enrichment was -0.136.
`GUCCUGUGCUACACAUCGUAUGUACCGAAUCAAAUUUUUAAAUUUUUAAAUUUUUAAAAAAGUAUUAUGUUACGCCGUUCGGAUCUGCAC` has a log2 enrichment of -1.48.
The log2 enrichment of `AAGUCCUGUGCUACACAUCGUAUGUACCGAAUCGGUUUUUGGUUUUUUUGGUUUGGAAAGUAUUAUGUUACGCCGUUCGGAUCUGCACUU` is reported as -1.33.
The log2 enrichment of `UCAAGUCCUGUGCUACACAUCGUAUGUACCGAAUCGGGAAAGGAAAGGGGAAAGGAAAGUAUUAUGUUACGCCGUUCGGAUCUGCACUUC` is reported as -0.75.
The log2 enrichment of `UCCUCAAGUCCUGUGCUACACAUCGUAUGUACCGAAUCGGAGGUUUGGUGGAAAGUAUUAUGUUACGCCGUUCGGAUCUGCACUUCCAGC` is reported as -0.795.
The log2 enrichment of `CAAGUCCUGUGCUACACAUCGUAUGUACCGAAUCGGGGUUUGGUUUGGGGUUUGGGAAAGUAUUAUGUUACGCCGUUCGGAUCUGCACUU` is reported as 0.206.

Study 3
Compound: COCCOc1nc(-c2ccc(Cl)nc2)nc2c1CN(C(=O)c1ncn3ccccc13)CC2
Effect on: cell-free assay
Method: competition with immobilised ligand
Concentration: 0.1 µM
It gave 100% for remaining binding (Ribosomal protein S6 kinase alpha-1, C-terminal kinase domain (RPS6KA1, Homo sapiens, UniProt Q15418)).
It gave 100% for remaining binding (MAPK4 (Homo sapiens, UniProt P31152)).
MAP3K12 (Homo sapiens, UniProt Q12852) — remaining binding: 97%.
The remaining binding was 100% (FGFR3 (Homo sapiens, UniProt P22607)).
For COQ8A (Homo sapiens, UniProt Q8NI60): remaining binding read 100%.
The remaining binding was 100% (DAPK2 (Homo sapiens, UniProt Q9UIK4)).
For MAST1 (Homo sapiens, UniProt Q9Y2H9): remaining binding read 100%.
For CAMK2G (Homo sapiens, UniProt Q13555): remaining binding read 100%.
It gave 100% for remaining binding (PIK3CB (Homo sapiens, UniProt P42338)).
It gave 100% for remaining binding (MAP3K6 (Homo sapiens, UniProt O95382)).
It gave 100% for remaining binding (RPS6KB1 (Homo sapiens, UniProt P23443)).
Ribosomal protein S6 kinase alpha-3, C-terminal kinase domain (RPS6KA3, Homo sapiens, UniProt P51812) — remaining binding: 82%.
CSNK1A1 (Homo sapiens, UniProt P48729) — remaining binding: 98%.
EGFR (Homo sapiens, UniProt P00533, T790M) — remaining binding: 61%.
For Cyclin-dependent kinase 4, with cyclin D3 (CDK4, Homo sapiens, UniProt P11802): remaining binding read 93%.
It gave 68% for remaining binding (Tyrosine-protein kinase ABL1, phosphorylated (ABL1, Homo sapiens, UniProt P00519)).
It gave 100% for remaining binding (STK39 (Homo sapiens, UniProt Q9UEW8)).
FGFR1 (Homo sapiens, UniProt P11362) — remaining binding: 100%.
FLT3 (Homo sapiens, UniProt P36888) — remaining binding: 85%.
The remaining binding was 74% (Tyrosine-protein kinase ABL1, non-phosphorylated (ABL1, Homo sapiens, UniProt P00519, Q252H)).

Study 4
Target: Sal-like protein 4, full length isoform A (SALL4, Homo sapiens, UniProt Q9UJQ4, residues 1-1053)
UniProt Q9UJQ4, sequence (whole entry, looked up): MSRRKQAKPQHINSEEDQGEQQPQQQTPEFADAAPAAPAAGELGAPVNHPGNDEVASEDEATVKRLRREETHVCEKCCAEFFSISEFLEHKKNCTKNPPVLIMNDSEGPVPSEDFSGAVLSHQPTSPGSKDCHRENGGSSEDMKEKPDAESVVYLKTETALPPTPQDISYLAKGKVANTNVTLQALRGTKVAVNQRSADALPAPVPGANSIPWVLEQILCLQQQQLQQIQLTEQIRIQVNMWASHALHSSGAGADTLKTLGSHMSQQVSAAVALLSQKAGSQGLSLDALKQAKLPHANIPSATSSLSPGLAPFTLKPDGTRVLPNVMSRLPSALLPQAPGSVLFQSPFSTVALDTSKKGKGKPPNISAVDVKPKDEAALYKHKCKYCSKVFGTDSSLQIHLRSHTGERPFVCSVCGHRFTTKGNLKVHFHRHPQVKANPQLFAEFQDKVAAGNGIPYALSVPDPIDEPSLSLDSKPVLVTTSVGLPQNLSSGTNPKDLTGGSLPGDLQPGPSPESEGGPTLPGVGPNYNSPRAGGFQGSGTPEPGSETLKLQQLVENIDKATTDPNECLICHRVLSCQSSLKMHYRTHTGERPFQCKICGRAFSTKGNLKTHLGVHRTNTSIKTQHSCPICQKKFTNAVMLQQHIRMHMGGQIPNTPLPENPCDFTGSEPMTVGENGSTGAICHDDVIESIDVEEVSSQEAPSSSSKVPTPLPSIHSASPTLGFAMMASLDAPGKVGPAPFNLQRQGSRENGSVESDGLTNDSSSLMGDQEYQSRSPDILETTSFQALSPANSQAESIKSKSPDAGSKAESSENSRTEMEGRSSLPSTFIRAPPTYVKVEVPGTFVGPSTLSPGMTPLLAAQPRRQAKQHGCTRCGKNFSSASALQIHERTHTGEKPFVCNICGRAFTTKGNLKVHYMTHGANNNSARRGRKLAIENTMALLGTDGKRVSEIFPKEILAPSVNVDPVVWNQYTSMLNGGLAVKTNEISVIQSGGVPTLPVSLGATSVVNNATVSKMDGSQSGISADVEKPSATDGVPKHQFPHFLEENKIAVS
Method: universal PBM
Molecule type: double-stranded DNA, one strand shown
Medium: in vitro
Concentration: 600 nM
Notes: 8-mer, flanks averaged, mean of replicates
Direction: higher = stronger binding
With `GTACGGTA` the E-score was 0.0161.
With `AGTAGTAG` the E-score was 0.0889.
With `CAATAGCG` the E-score was -0.167.
With `ACTTATAG` the E-score was 0.167.
`ATGACACC` has an E-score of 0.0239.
`CGTATCTA` gave an E-score of 0.103.
`AAGTCTAA` has an E-score of 0.181.
`ATTTATAC` gave an E-score of 0.314.

Single results of other studies
For `CC1(C)C(N)=Nc2cc(OCCCN3Cc4ccc(OCCc5cn(CC(=O)N6CCC(CCN7CCCC7)CC6)nn5)cc4C3)c(OCC3CC3)cc21`, “nuclear SOX9 intensity” read 123 % of DMSO (mouse MPNST tumor cells; high-content immunofluorescence imaging, measured: nuclear SOX9; 10 µM, 12 h, mean of 2 replicates; relative to: DMSO control, higher = more nuclear SOX9).
For `c1ccc(Oc2ccc(Nc3c4c(nc5ccccc35)CCC4)cc2)cc1`, the cytotoxicity was 9% and 10% (PMA-differentiated THP-1 macrophages; 0.02 µM, 64 h).

Excerpt of the above (study 3):
For COQ8A (Homo sapiens, UniProt Q8NI60): remaining binding read 100%.
The remaining binding was 100% (DAPK2 (Homo sapiens, UniProt Q9UIK4)).
